Assay results pooled from the literature.
A part holds a random share of what one study measured. Positions count from the first letter of the parent shown.

Study 1
Target: TAR DNA-binding protein 43, full length, His tag (TARDBP, Homo sapiens, UniProt Q13148, residues 1-414)
Method: RNA Bind-n-Seq
Molecule type: RNA
Medium: in vitro
Concentration: 20 nM
Setting: 6-mer, flanks averaged, single round
Together with: 150 mM KCl
Reference: input library
Direction: higher = stronger binding
| Strand | 6-mer enrichment (R) |
| --- | --- |
| CGGCAC | 0.927 |
| GGGCUC | 1.86 |
| UUAUUG | 0.656 |
| AUCUUC | 0.524 |
| CUCGAC | 0.604 |
| GCGUUC | 0.765 |
| GGGCGC | 3.73 |
| CUCAAA | 0.601 |

Study 2
Target: NFE2L2, bZIP domain (human)
Method: DHFR protein complementation
Medium: yeast
Setting: single substitutions, most at no-binding floor
Reference: wild-type JUN-FOS pair
Direction: higher = stronger binding
Starting sequence: JUN, bZIP domain (human); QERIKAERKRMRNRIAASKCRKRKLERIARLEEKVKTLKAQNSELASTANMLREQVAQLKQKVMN; partner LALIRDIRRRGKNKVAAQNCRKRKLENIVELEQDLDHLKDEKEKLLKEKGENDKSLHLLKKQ
| Change | binding fitness [natural log] |
| --- | --- |
| L52T | -1.51 |
| S43V | -1.41 |
| R53N | -1.43 |
| M51D | -1.38 |
| R53F | -1.58 |
| R53V | -1.51 |
| Q41G | -1.5 |
| A49W | -1.26 |

Study 3
Target: PABPC1L2, full length, GST fusion (mouse, UniProt A0ABA7IW68)
Method: RNAcompete
Molecule type: RNA
Medium: in vitro
Concentration: 20 nM
Setting: 7-mer, probes averaged, single round
Reference: mean of 7-mers
Direction: higher = stronger binding
Construct (chain): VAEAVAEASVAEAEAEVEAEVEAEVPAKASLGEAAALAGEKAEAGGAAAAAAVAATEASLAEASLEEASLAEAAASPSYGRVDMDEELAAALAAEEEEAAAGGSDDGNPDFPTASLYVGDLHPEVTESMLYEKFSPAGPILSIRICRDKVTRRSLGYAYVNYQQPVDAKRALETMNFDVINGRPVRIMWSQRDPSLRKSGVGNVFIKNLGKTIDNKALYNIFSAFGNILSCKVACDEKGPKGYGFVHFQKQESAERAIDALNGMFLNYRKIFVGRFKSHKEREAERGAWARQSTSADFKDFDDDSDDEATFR
| Strand | 7-mer Z-score |
| --- | --- |
| CGUUUAC | -0.315 |
| GUCAUCU | -0.258 |
| GUACCUG | -0.271 |
| UGGUCCC | -0.182 |
| AGUCAUU | -0.229 |
| UGAACGC | -0.112 |
| UGGUUGC | -0.113 |
| ACCCGAU | -0.161 |

Single results of other studies
Starting sequence: viral docking peptide; KGVKRKLFAEDSS
| Change | target | test | test system | setting | how to read | endpoint | value |
| --- | --- | --- | --- | --- | --- | --- | --- |
| K4I | CCNE1, cyclin fold, Cln2 fusion (human) | yeast growth competition, sequencing | yeast | strong parent motif | reference: not given, higher = stronger binding | normalised enrichment score | 7.63 |

A few entries again (study 3):
| Strand | 7-mer Z-score |
| --- | --- |
| UGGUCCC | -0.182 |
| AGUCAUU | -0.229 |
